Measured values from different studies.
Parts stem from different laboratories: compare values within a part only. Changes are numbered by the printed parent chain.

Sample 1 — technique: protein binding microarray; form: double-stranded DNA, one strand shown; medium: in vitro; tested at: not given; baseline: not given; direction: higher = stronger binding; measurement: E-score
Target: Histone acetyltransferase KAT6A, winged helix 1, GST fusion (KAT6A, Homo sapiens, UniProt Q92794, residues 1-85)
Setting: 8-mer, flanks averaged, mean of 2 arrays, mostly near background
Construct (chain): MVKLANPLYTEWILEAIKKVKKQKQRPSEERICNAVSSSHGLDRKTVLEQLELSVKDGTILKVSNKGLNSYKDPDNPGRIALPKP
CACCCCTG: -0.16
GCATTCCA: 0.0117
GGATTTAC: 0.159
CCAGAAAC: -0.135
ATATAATC: -0.00513
GTCGATTA: -0.129
CTATCTGA: -0.205
CTGTCGAA: -0.0789

Sample 2 — target: CEP164, C-terminal peptide (human); technique: DHFR complementation, deep sequencing; medium: yeast; baseline: wild type; direction: higher = weaker binding; measurement: binding free energy change
Setting: single substitutions, model-inferred values
Parent: PDZK1, PDZ domain 2 (human); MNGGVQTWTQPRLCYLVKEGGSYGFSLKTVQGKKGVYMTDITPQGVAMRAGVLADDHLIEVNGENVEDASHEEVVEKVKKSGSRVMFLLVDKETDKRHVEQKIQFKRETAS; partner HNRVKVYRF
H98T: -0.0425 kcal/mol
E19L: 0.451 kcal/mol
P11K: 0.268 kcal/mol
G4C: 0.0195 kcal/mol
E100I: -0.0615 kcal/mol
K77W: 0.528 kcal/mol
M1H: -0.119 kcal/mol
A47M: 2.08 kcal/mol

Sample 3 — technique: universal PBM; form: double-stranded DNA, one strand shown; medium: in vitro; tested at: not given; direction: higher = stronger binding; measurement: E-score
Target: Sal-like protein 4, full length isoform B (SALL4, Homo sapiens, UniProt Q9UJQ4-2, residues 1-616)
Setting: 8-mer, flanks averaged, mean of replicates
AAAACAAA: 0.28
GTTACTAA: 0.163
CAGCAGAC: -0.142
TATTTTAA: 0.396
CAATAGGG: -0.0439
TATAGCGA: 0.157
CGGTAGAC: -0.0659
GAAATGAA: 0.232

Further values, each from its own experiment — parent: viral docking peptide; KKAKRRLFTISDS
I10A — normalised enrichment score (CCNB1, cyclin fold, Cln2 fusion (human); yeast growth competition, sequencing; yeast; weak parent motif; baseline: not given, higher = stronger binding): 0.536

Some of these lines once more (sample 2):
K77W: 0.528 kcal/mol
G4C: 0.0195 kcal/mol
A47M: 2.08 kcal/mol
